Results pooled from the literature.
Each numbered part is a random draw from the data of one study; scales do not carry over between parts. Positions count from the first letter of the parent shown.

Study 1
Target: CCNF, cyclin fold, Cln2 fusion (human)
Technique: yeast growth competition, sequencing
Matrix: yeast
Setting: strong parent motif
Reference: not given
Reading: higher = stronger binding
Measurement: normalised enrichment score
Starting sequence: PKMYT1 docking peptide (human); SFEPRNLLSLFED; partner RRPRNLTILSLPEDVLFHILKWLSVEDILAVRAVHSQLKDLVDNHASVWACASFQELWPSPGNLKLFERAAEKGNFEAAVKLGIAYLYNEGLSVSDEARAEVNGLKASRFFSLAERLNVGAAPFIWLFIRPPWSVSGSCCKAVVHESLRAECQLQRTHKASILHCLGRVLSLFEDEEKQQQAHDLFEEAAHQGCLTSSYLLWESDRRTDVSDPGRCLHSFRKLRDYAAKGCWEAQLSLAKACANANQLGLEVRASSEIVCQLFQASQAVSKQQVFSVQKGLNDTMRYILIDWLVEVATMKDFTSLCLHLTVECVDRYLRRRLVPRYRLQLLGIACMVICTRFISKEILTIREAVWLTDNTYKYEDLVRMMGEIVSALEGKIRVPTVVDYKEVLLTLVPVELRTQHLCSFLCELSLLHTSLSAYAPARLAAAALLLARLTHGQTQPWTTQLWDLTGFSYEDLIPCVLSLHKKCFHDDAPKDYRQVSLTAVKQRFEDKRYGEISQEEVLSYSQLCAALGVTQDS
Variant = N6F; value = -0.369
Variant = L10V; value = 0.36
Variant = E12G; value = 0.25
Variant = L7D; value = -1.11
Variant = L8G; value = -0.391
Variant = L8T; value = -0.00477
Variant = E3C; value = 2.08
Variant = L8P; value = -0.759
Variant = R5K F11L; value = -0.0325
Variant = E3D; value = 0.487
Variant = D13K; value = 0.648
Variant = P4Q; value = -0.0199
Variant = L7T; value = -0.423
Variant = E12S; value = 0.797
Variant = F11P; value = -0.835
Variant = E3F; value = 1.96
Variant = R5V; value = -0.487
Variant = N6R; value = 1.58
Variant = S1M; value = 2.64
Variant = D13V; value = 1.44

Study 2
Target: JUN, bZIP domain (human)
Technique: DHFR protein complementation
Matrix: yeast
Setting: single substitutions, most at no-binding floor
Reference: wild-type JUN-FOS pair
Reading: higher = stronger binding
Measurement: binding fitness
Starting sequence: JUN, bZIP domain (human); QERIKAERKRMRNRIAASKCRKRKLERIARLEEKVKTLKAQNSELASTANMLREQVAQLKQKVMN
Variant = Q41S; value = -1.51 natural log
Variant = L59V; value = -1.22 natural log
Variant = L45T; value = -1.33 natural log
Variant = L52A; value = -1.2 natural log
Variant = V56G; value = -1.23 natural log
Variant = L59N; value = -1.35 natural log
Variant = A40P; value = -1.39 natural log
Variant = L31D; value = -1.32 natural log
Variant = R53D; value = -1.21 natural log
Variant = N42T; value = -1.24 natural log
Variant = V56P; value = -1.27 natural log
Variant = L45E; value = -1.28 natural log

Study 3
Target: Ras GTPase-activating protein-binding protein 1, RRM domain (G3BP1, Homo sapiens, UniProt Q13283)
Chain of UniProt Q13283 (whole entry, looked up): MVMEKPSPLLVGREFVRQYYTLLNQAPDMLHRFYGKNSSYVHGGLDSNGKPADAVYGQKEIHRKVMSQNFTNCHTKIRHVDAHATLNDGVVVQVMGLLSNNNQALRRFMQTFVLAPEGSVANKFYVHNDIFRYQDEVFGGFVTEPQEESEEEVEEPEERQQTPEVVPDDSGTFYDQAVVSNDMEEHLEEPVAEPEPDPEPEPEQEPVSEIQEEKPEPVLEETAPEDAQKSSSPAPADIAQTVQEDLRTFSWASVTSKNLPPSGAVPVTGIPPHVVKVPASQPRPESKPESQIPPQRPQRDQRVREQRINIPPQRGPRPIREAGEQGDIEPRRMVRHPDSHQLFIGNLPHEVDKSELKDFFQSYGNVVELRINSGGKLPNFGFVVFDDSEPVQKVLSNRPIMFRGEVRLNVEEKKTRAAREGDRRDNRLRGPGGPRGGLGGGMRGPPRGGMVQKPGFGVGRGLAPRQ
Technique: RNA Bind-n-Seq
Form: RNA
Matrix: in vitro
Concentration: 1 µM
Setting: whole 134-nt RNA, ends assumed
Added: 150 mM KCl
Reference: input library
Reading: higher = stronger binding
Measurement: log2 enrichment
Sequence = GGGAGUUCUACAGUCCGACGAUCUGGGAGGUGGAUUUUGUUUAUUUUUUUAGCUCAUUUCCAGGGGUGGGAGUUUUUUUUUAAUAUGUGUCAUGAAUAAAGUUGUUUUUGAAAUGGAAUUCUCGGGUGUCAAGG; value = 1.65
Sequence = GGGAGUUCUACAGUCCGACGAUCACCAUGCAGGUGGGCAUCUUUGGGAAGUGGGUCAAGGGGGGGAUAGGGAGGGGGGUAACACUUUGGGAACAGGUGGUCCCAGGUCGUUUCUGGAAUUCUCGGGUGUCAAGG; value = -0.258
Sequence = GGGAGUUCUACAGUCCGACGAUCUCCUCAAGUCCUGUGCUACACAUCGUAUGUACCGAAUCGGGUGGUGGUGGGAAAGUAUUAUGUUACGCCGUUCGGAUCUGCACUUCCAGCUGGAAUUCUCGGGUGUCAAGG; value = -0.102
Sequence = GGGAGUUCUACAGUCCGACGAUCAGUCCUGUGCUACACAUCGUAUGUACCGAAUCGGGAAAAAGGGAAAGGGUUUUUGGGAAAGUAUUAUGUUACGCCGUUCGGAUCUGCACUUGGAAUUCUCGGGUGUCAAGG; value = 0.265
Sequence = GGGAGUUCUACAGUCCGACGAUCAGUCCUGUGCUACACAUCGUAUGUACCGAAUCGGGGCCCCGGCCCCGGGCCCCGGGGAAAGUAUUAUGUUACGCCGUUCGGAUCUGCACUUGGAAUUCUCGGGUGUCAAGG; value = -0.763
Sequence = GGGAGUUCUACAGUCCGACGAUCGUCCUGUGCUACACAUCGUAUGUACCGAAUCGGGGAGGGGUUUGGGGUUUUUUUGGGGAAAGUAUUAUGUUACGCCGUUCGGAUCUGCACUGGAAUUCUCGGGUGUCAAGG; value = 1.1
Sequence = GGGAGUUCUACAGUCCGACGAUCCUCCAGAAAGCAGUGGGGCCUGAGAUCACCAAGACAGACCUGGUCCCUGCCUUCCAGAACCUGAUGAAAGACUGUGAGGCCGAGGUGAGGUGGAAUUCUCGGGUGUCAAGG; value = -0.386
Sequence = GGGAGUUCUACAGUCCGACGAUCACCAUGCAGGUGGGCAUCUUUGGGAAGUGGGGCAAGGGGGGGAUAGGGAGGGAGGUAACACUUUGGGAACAGGUGGUCCCAGGUCGUUUCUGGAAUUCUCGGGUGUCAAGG; value = 0.754
Sequence = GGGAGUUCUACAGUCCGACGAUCGUCCUGUGCUACACAUCGUAUGUACCGAAUCGGGGUUUGGGGAAAGGGGAAAAAGGGGAAAGUAUUAUGUUACGCCGUUCGGAUCUGCACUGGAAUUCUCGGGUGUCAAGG; value = 1.4
Sequence = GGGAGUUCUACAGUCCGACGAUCUCAAGUCCUGUGCUACACAUCGUAUGUACCGAAUCGGGGCCGGGCCGGGGCCGGGAAAGUAUUAUGUUACGCCGUUCGGAUCUGCACUUCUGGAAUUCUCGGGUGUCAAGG; value = -1.12
Sequence = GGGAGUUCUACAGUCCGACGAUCUCCUGUGCUACACAUCGUAUGUACCGAAUCGGGGUUUUUGGGUUUUUGGGUUUUUGGGGAAAGUAUUAUGUUACGCCGUUCGGAUCUGCAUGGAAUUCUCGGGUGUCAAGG; value = 0.0887
Sequence = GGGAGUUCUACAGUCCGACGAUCUCCUGUGCUACACAUCGUAUGUACCGAAUCGGGGAAAAAAGGGGAAAAAAGGAAAAAAGGAAAGUAUUAUGUUACGCCGUUCGGAUCUGCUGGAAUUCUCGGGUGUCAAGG; value = 0.0448
Sequence = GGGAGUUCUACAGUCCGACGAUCCCUGUGCUACACAUCGUAUGUACCGAAUCAAACCCCCCCAAAUUUUUUUAAAUUUUUAAAAAAGUAUUAUGUUACGCCGUUCGGAUCUGCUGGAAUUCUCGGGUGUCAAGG; value = -0.705
Sequence = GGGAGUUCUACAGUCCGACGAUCGUCCUGUGCUACACAUCGUAUGUACCGAAUCGGGUUUUUUUGGGAAAAAGGGUUUGGGAAAGUAUUAUGUUACGCCGUUCGGAUCUGCACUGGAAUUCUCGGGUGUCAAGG; value = -0.178

Study 4
Target: ABI1, truncated, D143A, DHFR fusion (Arabidopsis thaliana)
Technique: DHFR PCA, deep sequencing
Matrix: yeast
Setting: methotrexate growth selection, single substitutions
Added: (+)-ABA 0.0091 µM
Reference: wild-type fitted maximum
Reading: higher = stronger binding
Measurement: relative binding score
Starting sequence: PYL1, truncated, DHFR fusion (Arabidopsis thaliana); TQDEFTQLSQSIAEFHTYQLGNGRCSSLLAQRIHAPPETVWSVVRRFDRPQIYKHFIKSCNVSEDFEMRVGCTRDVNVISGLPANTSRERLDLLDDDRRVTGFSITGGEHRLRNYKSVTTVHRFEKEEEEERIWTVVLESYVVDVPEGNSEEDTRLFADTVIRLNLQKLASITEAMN; partner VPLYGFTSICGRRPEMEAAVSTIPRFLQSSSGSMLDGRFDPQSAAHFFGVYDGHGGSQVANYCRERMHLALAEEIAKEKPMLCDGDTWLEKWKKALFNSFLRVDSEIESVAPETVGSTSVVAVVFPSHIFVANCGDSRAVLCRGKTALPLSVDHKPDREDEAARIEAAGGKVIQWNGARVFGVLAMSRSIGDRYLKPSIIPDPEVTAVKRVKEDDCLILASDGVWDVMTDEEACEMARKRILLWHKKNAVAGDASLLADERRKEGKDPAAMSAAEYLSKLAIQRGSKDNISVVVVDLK
Variant = V43W; value = -4.29%
Variant = H55S; value = 6.72%
Variant = D159F; value = -5.81%
Variant = A175F; value = 0.864%
Variant = V136G; value = -8.52%
Variant = R155Q; value = 6.85%
Variant = L28Q; value = -1.12%
Variant = N61A; value = 28.3%
Variant = T106G; value = 3.16%
Variant = S9R; value = 57.9%
Variant = Y53W; value = 51.1%
Variant = K54D; value = -7.8%
Variant = V76Y; value = 8.62%
Variant = E152L; value = 5.15%
Variant = R113P; value = 92.5%
Variant = T73F; value = 45.1%
Variant = T160Y; value = 20.1%

Study 5
Target: Interferon regulatory factor 5, full length, phosphomimetic (IRF5, Homo sapiens, UniProt Q13568-2, residues 1-514, S451D/S453D/S456D/S462D)
Technique: protein-binding microarray
Form: double-stranded DNA, one strand shown
Matrix: in vitro
Concentration: 940 nM top
Setting: 60-bp whole probe
Added: salmon DNA 0.4 mg/ml
Reference: random background probes
Reading: higher = stronger binding
Measurement: fitted relative affinity
Constant ends, left off below: GCCTAGCAC … GTCTTGATTCGCTTGACGCTGCTG
Sequence = TTAGGACCGCTACTGCTTTAGTGCTAG; value = -0.267 z-score
Sequence = TCAGCAAAAATGATTGGACTGTGCTAG; value = -0.339 z-score
Sequence = GACTATATCAGTTTCGAGACGTGCTAG; value = 4.17 z-score
Sequence = ACCATTTTTTTTCACTATTGGTGCTAG; value = 2.21 z-score
Sequence = AAGCTTCTGGTCTTCTGGACGTGCTAG; value = -0.0504 z-score
Sequence = TTAGGTATCGACTATCGGTTTGTGCTA; value = 6.65 z-score
Sequence = GACGGACTGCGTCTCCTGACGTGCTAG; value = -0.422 z-score
Sequence = TTCGATTTCGGGACTGGATTAGTGCTA; value = 0.804 z-score
Sequence = GACGAACTGGGGAGTGGAGACGTGCTA; value = 0.168 z-score
Sequence = CTCTACATGTGTTTAAGAATGTGCTAG; value = -0.186 z-score
Sequence = TTTGGTCTCGGTTTCGGTTAGTGCTAG; value = 11.5 z-score
Sequence = TTAGGTATCGTCTTTCGGTTAGTGCTA; value = 4.92 z-score
Sequence = GACGATTTCGGGTTTAGAGACGTGCTA; value = 0.855 z-score
Sequence = TTAGGACTAGACTATCGGTTAGTGCTA; value = -0.401 z-score
Sequence = TTAGGACTGGGGTATCGGTTAGTGCTA; value = 2.51 z-score
Sequence = TTTTGCTTTCTTTTTGCACTGTGCTAG; value = 2.6 z-score
Sequence = TTAGGGCTGGGTATCGGTTAGTGCTAG; value = 3.74 z-score
Sequence = TCAATGTTCCCTATATAACTGTGCTAG; value = 0.738 z-score

Some of these lines once more (study 1):
Variant = N6R; value = 1.58
Variant = E12G; value = 0.25
Variant = L8P; value = -0.759
Variant = E3F; value = 1.96
Variant = L7T; value = -0.423
